Experimental data from different studies.
Numbered parts are unrelated; each lists some results of a single study.
Sequence of UniProt Q16288 (whole entry, looked up): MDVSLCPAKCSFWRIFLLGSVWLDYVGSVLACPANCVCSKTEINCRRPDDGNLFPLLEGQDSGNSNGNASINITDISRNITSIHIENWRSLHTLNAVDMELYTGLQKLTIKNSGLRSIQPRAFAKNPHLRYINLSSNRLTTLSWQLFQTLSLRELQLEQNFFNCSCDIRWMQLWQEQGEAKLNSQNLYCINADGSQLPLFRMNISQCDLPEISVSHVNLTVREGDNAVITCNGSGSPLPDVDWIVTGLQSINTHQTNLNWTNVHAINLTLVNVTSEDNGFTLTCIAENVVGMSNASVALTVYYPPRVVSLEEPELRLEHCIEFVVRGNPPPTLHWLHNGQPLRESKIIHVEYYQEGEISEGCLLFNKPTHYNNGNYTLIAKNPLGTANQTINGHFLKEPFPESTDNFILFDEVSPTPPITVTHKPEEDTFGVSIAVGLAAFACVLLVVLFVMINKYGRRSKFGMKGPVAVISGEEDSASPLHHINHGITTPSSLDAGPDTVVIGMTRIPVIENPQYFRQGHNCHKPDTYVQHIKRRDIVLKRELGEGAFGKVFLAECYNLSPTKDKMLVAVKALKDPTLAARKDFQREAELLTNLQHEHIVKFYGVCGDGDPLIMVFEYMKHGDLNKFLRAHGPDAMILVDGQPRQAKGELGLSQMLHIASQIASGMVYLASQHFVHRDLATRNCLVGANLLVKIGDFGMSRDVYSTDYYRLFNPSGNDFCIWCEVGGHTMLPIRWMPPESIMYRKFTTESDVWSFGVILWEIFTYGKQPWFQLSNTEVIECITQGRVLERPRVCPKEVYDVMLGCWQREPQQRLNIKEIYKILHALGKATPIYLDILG
Sequence of UniProt P08922 (whole entry, looked up): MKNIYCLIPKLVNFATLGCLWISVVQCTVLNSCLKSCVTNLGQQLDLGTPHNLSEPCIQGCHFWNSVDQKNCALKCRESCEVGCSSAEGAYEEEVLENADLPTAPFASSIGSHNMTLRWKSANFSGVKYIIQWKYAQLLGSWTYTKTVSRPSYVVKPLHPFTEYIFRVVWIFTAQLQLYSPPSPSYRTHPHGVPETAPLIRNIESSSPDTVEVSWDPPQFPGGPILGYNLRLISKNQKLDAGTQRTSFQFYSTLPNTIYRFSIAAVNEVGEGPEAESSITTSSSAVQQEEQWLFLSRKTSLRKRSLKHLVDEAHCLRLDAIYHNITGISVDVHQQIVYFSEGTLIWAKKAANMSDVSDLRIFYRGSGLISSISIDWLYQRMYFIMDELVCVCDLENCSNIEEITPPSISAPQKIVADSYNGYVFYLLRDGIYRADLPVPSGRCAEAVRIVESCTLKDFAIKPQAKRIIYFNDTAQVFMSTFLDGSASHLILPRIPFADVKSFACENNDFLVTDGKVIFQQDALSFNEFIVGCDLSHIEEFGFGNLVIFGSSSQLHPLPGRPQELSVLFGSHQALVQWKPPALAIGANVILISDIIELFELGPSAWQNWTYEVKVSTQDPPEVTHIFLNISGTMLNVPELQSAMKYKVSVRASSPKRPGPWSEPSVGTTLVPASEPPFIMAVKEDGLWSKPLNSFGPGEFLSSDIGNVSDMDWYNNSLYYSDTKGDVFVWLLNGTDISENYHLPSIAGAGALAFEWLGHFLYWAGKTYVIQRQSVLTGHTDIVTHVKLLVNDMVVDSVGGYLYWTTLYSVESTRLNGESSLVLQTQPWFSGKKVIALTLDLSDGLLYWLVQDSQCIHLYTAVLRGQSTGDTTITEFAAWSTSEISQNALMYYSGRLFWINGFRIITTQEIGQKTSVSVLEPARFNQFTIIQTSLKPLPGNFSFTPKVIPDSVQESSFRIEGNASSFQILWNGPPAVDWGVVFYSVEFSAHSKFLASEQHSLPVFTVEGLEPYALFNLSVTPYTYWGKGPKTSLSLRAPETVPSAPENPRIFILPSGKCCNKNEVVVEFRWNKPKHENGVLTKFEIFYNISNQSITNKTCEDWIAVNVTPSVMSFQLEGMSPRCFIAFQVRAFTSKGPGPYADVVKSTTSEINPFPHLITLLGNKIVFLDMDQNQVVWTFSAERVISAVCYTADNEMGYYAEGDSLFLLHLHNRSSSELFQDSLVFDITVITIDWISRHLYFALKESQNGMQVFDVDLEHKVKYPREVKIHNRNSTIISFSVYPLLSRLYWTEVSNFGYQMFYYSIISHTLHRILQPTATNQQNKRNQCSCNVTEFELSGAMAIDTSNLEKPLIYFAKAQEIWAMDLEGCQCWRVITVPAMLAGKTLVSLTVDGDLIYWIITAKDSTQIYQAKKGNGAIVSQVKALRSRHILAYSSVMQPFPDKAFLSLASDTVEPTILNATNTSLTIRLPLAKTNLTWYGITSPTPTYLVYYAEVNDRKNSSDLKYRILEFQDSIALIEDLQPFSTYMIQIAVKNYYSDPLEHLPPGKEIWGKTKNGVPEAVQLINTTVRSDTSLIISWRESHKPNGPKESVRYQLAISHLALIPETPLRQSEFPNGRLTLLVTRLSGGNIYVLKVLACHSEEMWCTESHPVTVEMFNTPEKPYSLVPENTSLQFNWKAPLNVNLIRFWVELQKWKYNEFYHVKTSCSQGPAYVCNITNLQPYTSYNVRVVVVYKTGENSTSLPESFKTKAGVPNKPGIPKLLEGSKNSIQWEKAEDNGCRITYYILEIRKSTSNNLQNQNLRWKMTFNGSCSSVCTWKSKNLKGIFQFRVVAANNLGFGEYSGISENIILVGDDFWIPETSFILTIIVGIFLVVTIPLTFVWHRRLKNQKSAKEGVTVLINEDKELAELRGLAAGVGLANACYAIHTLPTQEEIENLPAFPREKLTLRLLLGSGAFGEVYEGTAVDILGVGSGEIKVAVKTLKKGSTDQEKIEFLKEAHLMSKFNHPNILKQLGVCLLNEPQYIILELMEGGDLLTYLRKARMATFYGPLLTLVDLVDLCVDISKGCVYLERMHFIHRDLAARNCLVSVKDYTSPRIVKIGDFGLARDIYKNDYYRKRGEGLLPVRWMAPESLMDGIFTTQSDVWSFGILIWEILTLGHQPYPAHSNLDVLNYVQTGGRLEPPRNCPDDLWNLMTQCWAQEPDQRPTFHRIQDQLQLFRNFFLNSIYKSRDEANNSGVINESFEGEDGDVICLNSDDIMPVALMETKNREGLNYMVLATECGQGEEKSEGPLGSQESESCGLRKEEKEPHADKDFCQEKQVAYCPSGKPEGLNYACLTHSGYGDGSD
Sequence of UniProt O75116 (whole entry, looked up): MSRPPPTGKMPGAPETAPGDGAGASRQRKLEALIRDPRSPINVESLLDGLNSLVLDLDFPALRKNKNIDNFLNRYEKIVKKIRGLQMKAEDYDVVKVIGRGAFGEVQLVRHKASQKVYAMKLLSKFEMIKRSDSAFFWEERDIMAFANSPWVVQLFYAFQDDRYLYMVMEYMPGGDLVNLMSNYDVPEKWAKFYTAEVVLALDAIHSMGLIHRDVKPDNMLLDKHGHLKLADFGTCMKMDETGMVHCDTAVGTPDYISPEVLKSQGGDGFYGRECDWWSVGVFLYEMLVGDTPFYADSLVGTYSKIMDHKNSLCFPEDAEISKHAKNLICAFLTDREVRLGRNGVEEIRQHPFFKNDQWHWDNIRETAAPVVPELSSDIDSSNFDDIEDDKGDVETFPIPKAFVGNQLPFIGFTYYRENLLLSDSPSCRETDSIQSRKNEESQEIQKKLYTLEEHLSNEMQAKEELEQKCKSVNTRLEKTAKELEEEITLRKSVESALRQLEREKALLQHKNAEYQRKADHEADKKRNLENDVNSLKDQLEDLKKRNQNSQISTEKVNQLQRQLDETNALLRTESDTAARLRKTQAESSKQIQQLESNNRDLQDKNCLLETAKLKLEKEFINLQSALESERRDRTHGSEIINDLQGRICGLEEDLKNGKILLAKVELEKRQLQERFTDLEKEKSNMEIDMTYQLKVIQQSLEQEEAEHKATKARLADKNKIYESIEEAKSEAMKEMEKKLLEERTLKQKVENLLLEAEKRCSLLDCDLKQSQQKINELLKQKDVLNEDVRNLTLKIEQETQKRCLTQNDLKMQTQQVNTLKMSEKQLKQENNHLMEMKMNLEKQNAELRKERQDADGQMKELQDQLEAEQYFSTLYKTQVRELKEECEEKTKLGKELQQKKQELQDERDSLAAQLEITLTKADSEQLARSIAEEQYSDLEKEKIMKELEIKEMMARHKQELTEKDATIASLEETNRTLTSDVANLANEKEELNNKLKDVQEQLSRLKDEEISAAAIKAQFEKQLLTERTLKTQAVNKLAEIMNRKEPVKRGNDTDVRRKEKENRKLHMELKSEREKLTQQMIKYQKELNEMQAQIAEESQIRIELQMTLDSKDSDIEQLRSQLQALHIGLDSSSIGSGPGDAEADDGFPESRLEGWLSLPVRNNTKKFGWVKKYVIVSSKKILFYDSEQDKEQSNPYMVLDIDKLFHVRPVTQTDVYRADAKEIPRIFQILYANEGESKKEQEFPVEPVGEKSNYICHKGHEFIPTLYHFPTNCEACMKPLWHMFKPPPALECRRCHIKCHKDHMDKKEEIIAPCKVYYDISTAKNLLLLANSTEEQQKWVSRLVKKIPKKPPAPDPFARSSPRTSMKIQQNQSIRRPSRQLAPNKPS

Sample 1
Structure (SMILES): CNc1cc2c(Nc3cccc(Br)c3)ncnc2cn1
Effect on: enzyme activity
Action: inhibitor
Concentration: 0.5 µM
Measurement: remaining activity
Rho-associated protein kinase 2 (ROCK2, Homo sapiens, UniProt O75116); reference: control: 99.5%
STE20-like serine/threonine-protein kinase (SLK, Homo sapiens, UniProt Q9H2G2); reference: control: 63%
Protein-tyrosine kinase 2-beta (PTK2B, Homo sapiens, UniProt Q14289); reference: control: 94.5%
Myosin-IIIb (MYO3B, Homo sapiens, UniProt Q8WXR4): 91.1%
Proto-oncogene tyrosine-protein kinase ROS (ROS1, Homo sapiens, UniProt P08922); reference: control: 89.1%
NT-3 growth factor receptor (NTRK3, Homo sapiens, UniProt Q16288); reference: control: 72.7%

Sample 2
Cell line: HaCaT
Concentration: 100 µM
Time: 36 h
Measurement: viability
CC(C)(C)NC(=O)[C@H]1CC[C@H]2[C@@H]3CC[C@H]4NC(=O)C=C[C@]4(C)[C@H]3CC[C@]12C: 98.7%
O=C(CCNNC(=O)c1ccncc1)NCc1ccccc1: 99.6%
C[C@H](CCC(=O)O)[C@H]1CC[C@H]2[C@@H]3CC[C@@H]4C[C@H](O)CC[C@]4(C)[C@H]3CC[C@]12C: 77.6%
NCCNc1ccc(NCCN)c2c1C(=O)c1ccncc1C2=O: 4.87%
COc1ccc(-c2ccc3cc(C(=O)O)ccc3c2)cc1[C@]12C[C@H]3C[C@H](C[C@H](C3)C1)C2: 6.14%
Nc1c(CC(=O)O)cccc1C(=O)c1ccc(Br)cc1: 100%
Cc1cc(Nc2ncc(Cl)c(Nc3ccccc3S(=O)(=O)C(C)C)n2)c(OC(C)C)cc1C1CCNCC1: 7.39%
COc1ccc(CN2CCN(C(c3ccc(F)cc3)c3ccc(F)cc3)CC2)c(OC)c1OC: 14.1%

Sample 3
Species: human
Matrix: microsomes or S9
Concentration: 2 µM
Time: 0.5 h
Measurement: remaining compound
CN(CC(=O)N1CCCC1)Cc1cc(=O)n(C)c(=O)n1C: 96.5%
CCn1cc(S(=O)(=O)N2CCN(S(=O)(=O)c3cnn(C)c3)CC2)cn1: 79.6%
N#Cc1ccc2[nH]cc(S(=O)(=O)c3cc(Cl)cc(Cl)c3)c(=O)c2c1: 49%
CC1CC(=O)N(Cc2ccc(Br)cc2)c2ccccc2N1 (centres unmarked): 11.6%
COc1nc(Nc2ccc3cn[nH]c3c2)nc(-n2ccnc2)n1: 14.2%
NC(=O)[C@@H]1C[C@@H](F)CN1Cc1cc2c(cc1Br)OCO2: > 100%
COc1ccc(-c2nc(-c3ccc(C)cc3)no2)c(OC)c1: > 100%

Sample 4
Target: 5-hydroxytryptamine receptor 1B (HTR1B, Homo sapiens, UniProt P28222)
Sequence of UniProt P28222 (whole entry, looked up): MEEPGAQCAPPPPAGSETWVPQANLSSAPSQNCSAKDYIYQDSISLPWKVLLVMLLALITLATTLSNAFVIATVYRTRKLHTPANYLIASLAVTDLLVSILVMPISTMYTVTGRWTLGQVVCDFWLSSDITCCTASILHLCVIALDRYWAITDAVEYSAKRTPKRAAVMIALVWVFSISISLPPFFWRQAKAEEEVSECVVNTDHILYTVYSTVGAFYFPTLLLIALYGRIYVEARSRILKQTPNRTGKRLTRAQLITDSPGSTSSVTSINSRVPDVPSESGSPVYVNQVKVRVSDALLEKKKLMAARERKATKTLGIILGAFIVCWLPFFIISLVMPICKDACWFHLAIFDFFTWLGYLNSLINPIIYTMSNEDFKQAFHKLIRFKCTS
Effect on: ligand displacement
Method: radioligand
Concentration: 10 µM
Measurement: inhibition
c1ccc(N2CCN(Cc3nc4ccccc4[nH]3)CC2)nc1: 7.3%
Cc1nccc(COC(=O)N2C[C@@H]3[C@@H](CNC(=O)c4ccc5[nH]nnc5c4)[C@@H]3C2)n1: 4.4%
O=C1NC(c2ccccn2)Sc2ccccc21 (centres unmarked): 12.3%
O=C(N1CCS(=O)(=O)CC1)N1C[C@H](c2ccc(OC(F)(F)F)cc2)C[C@H](c2nc(C3CC3)no2)C1: 30.8%
Cc1cnc(-c2cc(Cl)ccc2F)cc1-n1c(=O)n(CC(N)=O)c2cnccc21: 19.5%
FC(F)(F)c1ccc2c(c1)nc(-c1cccnc1)n2C1CC1: 8.83%
NS(=O)(=O)c1cc(NC(=O)C2(c3ccccc3Cl)CC2)ccc1Oc1cccc(Cl)c1: 4.81%
O=C(Nc1cccnn1)N1CC(CC=Cc2cncc(Oc3ccc(C(F)(F)F)cn3)n2)C1: 4.8%
